Measurements of several laboratories.
Each numbered part is a random draw from the data of one study; scales do not carry over between parts. Changes are numbered by the printed parent chain.

Study 1
Target: Fragile X messenger ribonucleoprotein 1, C-terminal low-complexity region (Fmr1, Mus musculus, UniProt P35922)
Method: RNA Bind-n-Seq
Molecule type: RNA
Sample: in vitro
Tested at: 200 nM
Setting: whole 134-nt RNA, ends assumed
Added: 150 mM KCl
Baseline: input library
Reading: higher = stronger binding
Quantity: log2 enrichment
All sequences stand within: GGGAGUUCUACAGUCCGACGAUC … UGGAAUUCUCGGGUGUCAAGG
CAAGUCCUGUGCUACACAUCGUAUGUACCGAAUCGGAAAAAGGAAAAAAAGGAGGAAAGUAUUAUGUUACGCCGUUCGGAUCUGCACUUC: -0.759
GUCCUGUGCUACACAUCGUAUGUACCGAAUCGGGGCCCCCGGGCCCCCGGCCCCCGGGAAAGUAUUAUGUUACGCCGUUCGGAUCUGCAC: -0.368
AGUCCUGUGCUACACAUCGUAUGUACCGAAUCGGGAAAAAGGAAAAAGGGAAAAAGGAAAGUAUUAUGUUACGCCGUUCGGAUCUGCACU: -0.652
UGGCCCUGGUGGCAUGCGGGGAGGAAGAGGUGGCCUCAUGGAUCGUGGUGGUCCCCGUGGAAUGUUCAGAGGUGGCCGUGGUGGAGACAG: -0.25
UAACUUUAGAGGAGGAUCUGAUGGAUAUGGCAGUGGCCGUGGAUUUGGGGAUGGCUAUAAUGGGUAUGGAGGAGGACCUGGAGGUGGCAA: 0.201
ACCAUGCAGGUGGGCAUCUUUGGGAAGUGGGGCAAGGGGGGGAUAGGGAGGGGGGUAACACUUUGGGAACAGGUGGUGCCAGGUCGUUUC: 0.713
UGGCCCUGGUGGCAUGCGGGGAGGAAGAGGUGACCUCAUGGAUCGUGGUGGUCCCGGUGGAAUGUUCAGAGGUGGCCGUGGUGGAGACAG: -0.0186
AGUCCUGUGCUACACAUCGUAUGUACCGAAUCGGGAGGGAAAAAGGGUUUUUUUGGGAAAGUAUUAUGUUACGCCGUUCGGAUCUGCACU: 0.416
GCAGGAAGUAAAAACAAAUGGAAAUGCUUCGGAUAGUGGCAGGGGUGGGGGUUGCUAAGGAAAGGGUGGGAUGGGAGUGGGGAAAGAGUU: 0.527
CUCAAGUCCUGUGCUACACAUCGUAUGUACCGAAUCGGGGUGGUGGGGUGGGGAAAGUAUUAUGUUACGCCGUUCGGAUCUGCACUUCCA: 0.796
CCUCAAGUCCUGUGCUACACAUCGUAUGUACCGAAUCGGUGGAAAGGUUUGGAAAGUAUUAUGUUACGCCGUUCGGAUCUGCACUUCCAG: -0.277
ACCAUGCAGGUGGCCAUCUUUGGGAAGUGGGGCAAGGGGGGGAUAGGGAGGGGGGUAACACUUUGGGAACAGGUGGUCCCAGGUCGUUUC: 1
UUUCAGGGCGCCCUGCGUCCGGCAGAGGAGGCGAGCAUCCCGCUCAGGUGAUGAGGAACCCCUCGCGCACCCAGCGCAGAAGGCUGCUGC: -0.903
UCCUGUGCUACACAUCGUAUGUACCGAAUCGGGGAAAAAGGGGUUUUUUUGGGGUGGGGAAAGUAUUAUGUUACGCCGUUCGGAUCUGCA: 0.871

Study 2
Target: RNA binding protein fox-1 homolog 2, RRM domain, GST-SBP tag (RBFOX2, Homo sapiens, UniProt O43251-10, residues 100-194)
Method: RNA Bind-n-Seq
Molecule type: RNA
Sample: in vitro
Tested at: 365 nM
Setting: natural RNA segment, single round, ends assumed
Baseline: no-protein control
Reading: higher = stronger binding
Quantity: RBNS enrichment (R)
All sequences stand within: GGGAGUUCUACAGUCCGACGAUC … UGGAAUUCUCGGGUGCCAA
Construct (chain): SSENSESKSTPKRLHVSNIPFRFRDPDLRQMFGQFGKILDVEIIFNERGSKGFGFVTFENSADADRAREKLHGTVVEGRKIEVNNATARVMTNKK
GUUUCUCUUUGUUAUCUAAAUGUUUCAGAAUUCAAUCGUGAAGGAACAGGCAUUUUACACUAUGAAGACAUUCUUUUGAGAUUUUUAUUUCAGUUGCUAUAUCAUAAGCA: 0.537
GGAGGCGGGAGGGGGCAGCGCUGGGCCUCGUGUCGCUUGUCGUCGUCCGUCCUGUGGGCGCUCUGCCCUGUGUCCUUCGCGUUCCUCGUUAAGCAGAAGAAGUCAGUAGU: 0.378
CUACUACUACUGAGAAGCUAAUUCUUGACCUGUGAUUGUGAUUGAUUACCUGAUAUCUAGAUAUAUAAUUAUAUGUGUGAAUAAAUGUGACAGAACUUGAUUAUUUCAUC: 0.528
UUGGCUGGGAUAGAGGGGUCAAGUUAUUAAUUUCUUCACACCUACCCUCCUUUUUUUCCCUAUCACUGAAGCUUUUUAGUGCAUUAGUGGGGAGGAGGGUGGGGAGACAU: 0.555
GUCAUAGAAUUGAUUACCCGCCGAAUUCAUUAAUUUACUGUAGUGUUAAGAGAAGCACUAAGAAUGCCAGUGACCUGUGUAAAAGUUACAAGUAAUAGAACUAUGACUGU: 26.8
UGAAGGGGUUUUCUUGAUAAUUUUCCUUUAAUAUGAAAUUUUUUUUCAUGCUUUAUCAAUAGCCCAGGAUAUAUUUUAUUUUUAGAAUUUUGUGAAACAGACUUGUAUAU: 0.942
CAGGAACUGCAACGGACUCACACUGUGCACGCUGGAUAGCGAAUAGCAGUAAGUAGCACACCCAUCACUUAGACAAAUACCCAAGGGAGUUCUGCUCACCGAUAUUUGCC: 0.251
UGCCUCCUAACUUUUAUAGUUAUUUUGUUUUAUAUUUCUAAAUUCUUGUAUCAGAUCCAAAGCUCUAUUGUACAGCAAAUUAUUCUUCAAAAUGAUUAUAACCAGUUGCA: 8.2
GCAGGGCAGGGCUGCUUUAACAGGCAGGGGUGGCAGUAAGUCACAGCUGCUGCUGCUGUCGUCUGCCCGCCAUUCAGCUAACCGUUCUGUUGAGGUCCUGCCUUGUGCUU: 0.35
CUGCUUUCUGAGCCCUGGGCCUGUGUCCUCCUAGAACUUCCAGGUUCCCGUUGCUUUGUUUUUCUGUCUGAAGGAAUCUUUUUCUUAGUCUUGUGAGCAGAUGUACCUGA: 9.55
GGAGCAGCUCUCUUAAGGAGAAACAAAUCUAUUUAGAGAAACAGCUGGCCCUGCAAAUGUUUACAGAAAUGAAAUUCUUCCUACUUAUAUAAGAAAUCUCACACUGAGAU: 0.602
CUGUAGAUGAUGUAUUUUUUUCAUCUUUUUUGUUAACUGAUUUGCAAUAAAAAUGAUACUGAUGGUGUCUGGCUUCCACUCCCCUCUGCUCUGGCCUUUGGCUCCCUUUC: 2.89

Study 3
Target: Histone acetyltransferase KAT6A, winged helix 1, GST fusion (KAT6A, Homo sapiens, UniProt Q92794, residues 1-85)
Method: protein binding microarray
Molecule type: double-stranded DNA, one strand shown
Sample: in vitro
Tested at: not given
Setting: 8-mer, flanks averaged, mean of 2 arrays, mostly near background
Baseline: not given
Reading: higher = stronger binding
Quantity: E-score
Target sequence (chain): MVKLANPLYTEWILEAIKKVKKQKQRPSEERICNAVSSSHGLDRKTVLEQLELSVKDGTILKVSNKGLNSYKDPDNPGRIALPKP
CGCGCCAA: 0.358
CTCAGTCA: -0.172
ACCTGCCG: 0.0883
ACTGTATA: -0.0709
ACCGGGGA: 0.27
ACTGCATG: -0.119
GTATCCTA: -0.0725
ACCTAAAG: -0.148
TCCTTAGA: -0.205
CCGGCAAG: 0.278
GCAATAAA: -0.0664
CTACTATC: 0.0895
AAAACCGC: 0.206
AGCCTGCC: 0.0406
GGCAACCC: 0.159
GTGTGAGA: -0.081
ATGTACGG: 0.204
ATTCTTCG: -0.0575
AACAGTAA: -0.0537
AATCTTTA: -0.128
ACGGCTTA: 0.345
CGCAGTGA: 0.148
GTTCGGCA: 0.00952
AATTGAAT: -0.119
CAGCAACC: -0.101

Study 4
Target: ABI1, truncated, D143A, DHFR fusion (Arabidopsis thaliana)
Method: DHFR PCA, deep sequencing
Sample: yeast
Setting: methotrexate growth selection, single substitutions
Added: (+)-ABA 0 µM
Baseline: wild-type fitted maximum
Reading: higher = stronger binding
Quantity: relative binding score
Starting sequence: PYL1, truncated, DHFR fusion (Arabidopsis thaliana); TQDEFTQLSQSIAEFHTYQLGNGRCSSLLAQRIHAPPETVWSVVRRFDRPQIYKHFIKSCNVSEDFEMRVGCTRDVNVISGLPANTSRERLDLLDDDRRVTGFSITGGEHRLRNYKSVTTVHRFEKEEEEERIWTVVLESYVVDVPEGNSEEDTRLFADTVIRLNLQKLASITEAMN
V62N: -9.39%
Q7W: 25%
K54H: 0.117%
L8W: 7.44%
R155F: -9.35%
T119L: -5.92%
E125L: 6.8%
M176P: 0.579%
V100H: -2.35%
Y115H: 12.9%
Q7T: 21.2%
S140N: -8.23%
V118T: 25%
N22V: 33.4%
E152Q: 14.1%
H16S: -1%
S87V: 59.1%
S63L: 2.83%
I105C: 2.12%
E128T: 25.7%
V44Y: 0.196%
I133M: 26.4%
I33Y: 0.568%

Study 5
Target: Interferon regulatory factor 7, full length, phosphomimetic (IRF7, Homo sapiens, UniProt Q92985, residues 1-503, S101K/S471D/S472D/S475D/S476D/S477D/S483D/S484D/S487D)
Method: protein-binding microarray
Molecule type: double-stranded DNA, one strand shown
Sample: in vitro
Tested at: 250 nM
Setting: 60-bp whole probe
Added: salmon DNA 0.4 mg/ml
Baseline: random background probes
Reading: higher = stronger binding
Quantity: log fluorescence
All sequences stand within: GCCTAGCAC … GTCTTGATTCGCTTGACGCTGCTG
Residues (chain): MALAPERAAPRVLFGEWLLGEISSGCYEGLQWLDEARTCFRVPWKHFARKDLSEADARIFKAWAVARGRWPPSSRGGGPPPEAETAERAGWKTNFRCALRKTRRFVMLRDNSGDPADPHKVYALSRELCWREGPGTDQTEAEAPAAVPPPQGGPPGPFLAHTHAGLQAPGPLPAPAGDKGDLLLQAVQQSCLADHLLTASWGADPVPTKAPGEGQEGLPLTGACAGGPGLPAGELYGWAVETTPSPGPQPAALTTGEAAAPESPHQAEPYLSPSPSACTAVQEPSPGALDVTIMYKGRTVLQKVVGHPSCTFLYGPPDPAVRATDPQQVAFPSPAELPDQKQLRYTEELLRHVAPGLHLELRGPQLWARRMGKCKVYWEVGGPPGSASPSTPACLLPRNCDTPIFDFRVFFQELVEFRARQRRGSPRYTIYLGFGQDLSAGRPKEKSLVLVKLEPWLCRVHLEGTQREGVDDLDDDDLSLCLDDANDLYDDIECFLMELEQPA
TTAGGTCTCGGCATCGGTTAGTGCTAG: 0.618 z-score
TTAGATATCAGTTTCAATTAGTGCTAG: 1.14 z-score
TTAGGTTTCGGCTTTCGGTTAGTGCTA: 8.61 z-score
GACGATTTGGGGACTGGAGACGTGCTA: 0.0475 z-score
TCAACTCTTGCTTTTTAACTGTGCTAG: -0.0299 z-score
GAAGATTTCGATTACAAAAAGTGCTAG: 2.69 z-score
GACGGACTGGGGACTGGGGGCGTGCTA: 0.735 z-score
TTAGAACTCGGGTTTCGATTAGTGCTA: 6.95 z-score
AAAGTTATCACTTCCAAAGTGTGCTAG: 0.365 z-score
GACGGATTGGGGACTGGGGACGTGCTA: -0.239 z-score
GACGGTATCGGCCTGGGGACGTGCTAG: -0.523 z-score
TTAGGCTTCCTTATCCTTTAGTGCTAG: -0.238 z-score
TTAGGTCTCAGTTTCGATTAGTGCTAG: 8.89 z-score
GACGAACTGATTATCGAGACGTGCTAG: 0.0615 z-score
TTTGGACACAGACACAGGCCGTGCTAG: -0.0603 z-score
TACGGTCTCCTTATCCTGACGTGCTAG: 0.477 z-score
TTAAATTTCGGGACTGGATTAGTGCTA: 0.215 z-score
AACTTTGGTATCTGGCATCTGTGCTAG: -0.117 z-score
TTAGGTTTCCAACTGCTTTAGTGCTAG: 1.3 z-score
CCCTAGGGGCTCTCAGAGATGTGCTAG: -1.31 z-score
TTGGTTTTCCTTATTGCTTCGTGCTAG: 1.72 z-score
GGTCCTTTCTGCCTCAGAGGGTGCTAG: 0.752 z-score
GACGGTTTCCTTTCCCTGAGGTGCTAG: 4.85 z-score
GACGATATCAGTCTCCAGACGTGCTAG: -0.179 z-score

Some of these lines once more (study 4):
E152Q: 14.1%
R155F: -9.35%
I105C: 2.12%
V118T: 25%
Q7W: 25%
V44Y: 0.196%
